Measured values gathered from unrelated publications.
A part holds a random share of what one study measured. Positions count from the first letter of the parent shown.

Sample 1
Target: CCNB1, cyclin fold, Cln2 fusion (human)
Technique: yeast growth competition, sequencing
Matrix: yeast
Setting: weak parent motif
Baseline: not given
Direction: higher = stronger binding
Quantity: normalised enrichment score
Starting sequence: RBL1 docking peptide (human); GSAKRRLFGEDPP
P13Q: 0.208
F8E: -0.281
F8K: 0.566
E10V: 0.266
P12I: 0.733
P13G: -0.141
R5G: -0.223
R6M: -0.11
L7Q: 1.22
D11C: 0.791
L7G: 0.457
P13Y: 0.0591
P12R: 0.764
F8L: 0.147
P13K: -0.26
S2P: 0.998
A3H: 0.733
R6H: 0.356

Sample 2
Target: Histone acetyltransferase KAT6A, winged helix 2, GST fusion (KAT6A, Homo sapiens, UniProt Q92794, residues 85-181)
Technique: protein binding microarray
Form: double-stranded DNA, one strand shown
Matrix: in vitro
Tested at: not given
Setting: 8-mer, flanks averaged, mean of 2 arrays, mostly near background
Baseline: not given
Direction: higher = stronger binding
Quantity: E-score
Target sequence (chain): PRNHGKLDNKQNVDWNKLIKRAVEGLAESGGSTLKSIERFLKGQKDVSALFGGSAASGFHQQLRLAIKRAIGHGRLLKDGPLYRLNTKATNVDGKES
CATTGGTC: -0.129
CCTCATCA: -0.106
AATACGCA: -0.0943
AAACATAC: -0.207
AATAGTGG: -0.147
AGAATTGC: -0.119
AACGGTAG: -0.106
AATTTACC: -0.128
AGGGTTAA: -0.0926
GCTGCTGA: 0.00579
GATTGCCA: 0.101
AGCTCGCC: 0.195
CATGGAAC: -0.0162
ACAGTTCT: -0.178
AACGTCGG: -0.0855
ATATTGGG: -0.066
CAACGGAA: -0.022
ATCTACTA: 0.00834
ACCAGAAG: -0.147
AGCTACAA: -0.148
GTTCCCGA: 0.11
AACAAGAC: -0.0087

Sample 3
Target: RING finger protein unkempt homolog, zinc fingers 1-6, GST-SBP tag (UNK, Homo sapiens, UniProt Q9C0B0, residues 30-357)
Technique: RNA Bind-n-Seq
Form: RNA
Matrix: in vitro
Tested at: not given
Setting: RNA with constant flanks, human and mouse sites, ends assumed
Baseline: input RNA pool
Direction: higher = stronger binding
Quantity: bound/input enrichment
Construct (chain): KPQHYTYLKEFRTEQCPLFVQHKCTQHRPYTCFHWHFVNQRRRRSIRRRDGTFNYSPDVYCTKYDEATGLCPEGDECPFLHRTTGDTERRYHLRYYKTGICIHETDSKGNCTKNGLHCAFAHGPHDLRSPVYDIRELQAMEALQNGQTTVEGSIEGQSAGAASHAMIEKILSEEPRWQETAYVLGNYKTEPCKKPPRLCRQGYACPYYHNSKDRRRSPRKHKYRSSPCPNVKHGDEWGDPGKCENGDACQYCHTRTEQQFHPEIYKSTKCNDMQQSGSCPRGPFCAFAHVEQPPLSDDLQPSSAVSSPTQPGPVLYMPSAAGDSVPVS
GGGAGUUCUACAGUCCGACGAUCAUAUCCUUGUCAGGUGAGAACAGGAAGGCGCCUCUCAGAGUGGCCCUCAGAACUGUCUGAAUGUCAACAAGAGCACUGUUACGUGUGCACCGCAGAAGAGGAGCCUCUGGAAAUUGCUCGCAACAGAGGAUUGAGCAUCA: 0.12 ratio
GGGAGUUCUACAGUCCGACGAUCAAUCUUAAGCUUGCAACUGAACUCCCUGAUGCUGAACUUAGGAGGACUUUAUGGUCUUUAGUAGCUUUCCCAAAACUCAAACGGCAAGUUUUGUUGUAUGAACCUCAAGUCAACUCACCCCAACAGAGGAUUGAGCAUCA: 0.389 ratio
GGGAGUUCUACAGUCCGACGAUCUUGUGCAGAGCCCAACAUGAGCUUCAUUUCCAAGCUGCCACCUAUCUCUGCCUCCUGCGUAGCAUCCGGAAACAUGUGGCCCUACAUCAGGAAUUUCAUGGCAAGGGAGAUACAACUCGUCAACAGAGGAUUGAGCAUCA: 0.107 ratio
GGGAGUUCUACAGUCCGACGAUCACGCAGUGUCUGCUGGGGCUGCGCACGUUCGUGGCCUUCGCCGCCAAGCUCUGGAGCUUCUUCAUUUACCUUCUGCGGAGGCAGAUCCGCACGGUAAUUCAGUACCAAACUGUUCGAUAUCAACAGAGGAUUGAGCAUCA: 0.0616 ratio
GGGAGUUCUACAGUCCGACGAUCAUUUUACAUGUUCCAGAUGGAAAGGGAAGUCUAAGCGCUUUUUAAAACAAUUUUUUUUUGUAUUUAAUUAAGCAAUUGCAGUUAUCUGGGAUUUUUGGGUCAGAAUUUUAAAUUCUGUUUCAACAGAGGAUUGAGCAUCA: 0.138 ratio
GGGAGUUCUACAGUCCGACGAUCAGUGUGAGGGGCGGGAGGGAAAGAAGAGGGGUUUAAAUUAGAUUUUUUAAAACACAGAGCAAGCGCCAGAGGCGUCGGCAUCCCAGGUGUCGCCGCUUCCUGCUGCACAGGGCUCGGCGUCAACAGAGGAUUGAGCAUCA: 6.87 ratio
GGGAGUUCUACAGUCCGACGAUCUUCACGGAGGUGACCAUUGGCCCCUCUGUACUCUCUGCUGCCAGAGAUGACAUCAGCAAGCUCAGAAACACACUCCGCUUUCUCUUGGGAAAUUUGACCGGUUUUAACCCCGAGACAGAUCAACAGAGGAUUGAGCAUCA: 0.106 ratio
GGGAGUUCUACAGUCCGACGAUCGCAAGAAUUGAUGCUGUGGAUGCGGAGACGGUUCGACGAGUGUGCACCAAGUACAUUCAUGACAAAAGCCCAGCUAUUGCUGCUCUGGGUCCUAUUGAGCGACUACCAGAUUUUAACCAGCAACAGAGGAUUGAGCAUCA: 0.219 ratio
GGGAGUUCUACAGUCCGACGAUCCCUCGAGCAGUAAAUGGAUUUUCCUGGCGUAAAACAAGCAAAUAUAUGCCUAGGGCUUCUGUAUGUAAUGUACUGUUGACUUGCUGCAAAGAUAAUGUGUGUCGUCUUUGGGUAGAGACACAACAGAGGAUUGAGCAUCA: 0.196 ratio
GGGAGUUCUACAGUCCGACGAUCAAUCAUGUGGGAAAGCCGUUACUGAAGAAGCCGAUGGGACCAGCCCACUGGGAAAAGAUAGAAGCCAUUAACCAAGCCAUAGCCAAUGAAUAUGAAGUCCGGAGGAAGCUGCUAAUCAAACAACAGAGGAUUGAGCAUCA: 0.885 ratio
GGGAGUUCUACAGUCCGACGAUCUUGGAAGUGUAUCCUCCCUUCUUAUUUUUUCUAGCUGUUGGAGGUGUUUACCACCCGCGUAUAGCUUCUGGCCUGGGCUUGGCCUGGAUUGUUGGACGAGUUCUUUAUGCUUAUGGCUAUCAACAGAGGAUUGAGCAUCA: 0.409 ratio

Sample 4
Target: Interferon regulatory factor 3, full length, phosphomimetic (IRF3, Homo sapiens, UniProt Q14653, residues 1-427, S386D/S396D/S398D/S402D/T404D/S405D)
Technique: protein-binding microarray
Form: double-stranded DNA, one strand shown
Matrix: in vitro
Tested at: 2540 nM top
Setting: 60-bp whole probe
Added: salmon DNA 0.4 mg/ml
Baseline: random background probes
Direction: higher = stronger binding
Quantity: fitted relative affinity
Constant ends, left off below: GCCTAGCAC … GTCTTGATTCGCTTGACGCTGCTG
Residues (chain): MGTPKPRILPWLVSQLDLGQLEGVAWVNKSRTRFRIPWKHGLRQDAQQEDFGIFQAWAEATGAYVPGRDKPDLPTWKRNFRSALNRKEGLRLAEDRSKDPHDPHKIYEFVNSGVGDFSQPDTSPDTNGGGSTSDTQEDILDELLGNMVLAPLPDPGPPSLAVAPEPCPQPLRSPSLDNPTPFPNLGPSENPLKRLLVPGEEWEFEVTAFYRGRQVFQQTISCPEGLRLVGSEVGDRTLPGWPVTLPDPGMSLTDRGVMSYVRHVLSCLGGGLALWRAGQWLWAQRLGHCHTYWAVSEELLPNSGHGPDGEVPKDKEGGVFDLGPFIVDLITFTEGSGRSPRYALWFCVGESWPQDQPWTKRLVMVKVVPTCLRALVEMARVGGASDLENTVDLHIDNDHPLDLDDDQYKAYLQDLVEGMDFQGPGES
TTAGGACTGTACACTGGGTTAGTGCTA: -0.635 z-score
TACTGCTGGAGCTCAAGAGCGTGCTAG: -1.1 z-score
TTAGGTTTCGGGACTGGGTAAGTGCTA: 4.21 z-score
GACGGTTTCCTTATCCTTACGTGCTAG: 7.59 z-score
TTAGATTTCGGGTTTCGATTCGTGCTA: 4.04 z-score
TCACATGTTTTTTTCTAACTGTGCTAG: 0.597 z-score
TCAACACTAATTTTCATACTGTGCTAG: 0.617 z-score
TTAGGACTGTGGACTGGGTTAGTGCTA: -1.04 z-score
GCCGGTTTCCTTCTCCTGACGTGCTAG: 10.2 z-score
GACGGTTTCGACACTGGGGACGTGCTA: 3.12 z-score
CACGGTTTCGGTATCGGGACGTGCTAG: 7.35 z-score
GACGATTTCCGGACTGGAGACGTGCTA: 1.9 z-score
GAGGTTTTCTAATGTTTTTTAGTGCTA: 1.02 z-score
TTAGGTATCAGTATCGATTAGTGCTAG: 3.85 z-score
TTCGATTCCAGTTTCGATTAGTGCTAG: 4.35 z-score
CACGGACTGCTTATCCTGACGTGCTAG: -0.437 z-score
GAAGGTTCCCTTTTCCTGACGTGCTAG: 6.95 z-score
GACGGTCTCCTTTTGCTGACGTGCTAG: 3.61 z-score
TTAGAGTTCGGGTATCGATTAGTGCTA: 0.0041 z-score
TTAGGACTGCTTCTCGTTTAGTGCTAG: 0.0414 z-score
CTAGAACTGGGGTATCGATTAGTGCTA: -0.303 z-score
TTAGGTTACGACTTTCGGTTAGTGCTA: 1.83 z-score
TAAGATCTCAGACTGGATTAGTGCTAG: -0.195 z-score
GACGATTTCAGGCTGGAGACGTGCTAG: 0.528 z-score
TTAGGTATCGACTATCAGTTAGTGCTA: 0.295 z-score

Sample 5
Target: Sal-like protein 4, full length isoform B (SALL4, Homo sapiens, UniProt Q9UJQ4-2, residues 1-616)
Technique: universal PBM
Form: double-stranded DNA, one strand shown
Matrix: in vitro
Tested at: not given
Setting: 8-mer, flanks averaged, mean of replicates
Direction: higher = stronger binding
Quantity: E-score
GCTCGAGA: -0.125
CCTCATCC: -0.187
ACCGTGTC: -0.159
TTGCACAA: 0.0936
GAGGCCGA: -0.289
AACTTAAT: 0.269
ACGGCCCA: -0.259
CCGTGAAC: -0.0973
ACCTTTAG: 0.104
TGCGTGAA: 0.0772
CTTCTCGA: -0.0118
CGCCTACG: -0.25
CTTCTGCC: -0.16
GGCCCCTA: -0.331
AAGCTTTG: 0.0227
CTAGCATC: -0.137
CAACGGAG: -0.241
GTTAGAGA: 0.00183
ACCACGCC: -0.191
CGTCCATA: 0.107
CGTTTGGC: -0.0572
GTCCCAAC: -0.0628
AACAATAC: 0.229

Sample 6
Target: Prothrombin, mature alpha-thrombin (F2, Homo sapiens, UniProt P00734)
Technique: aptamer microarray, sandwich
Form: DNA with 2'F-ANA
Matrix: in vitro
Tested at: 200 nM
Setting: whole 15-mer aptamer, many near background
Added: Cy3 exosite-II aptamer, 400 nM
Direction: higher = stronger binding
Quantity: mean fluorescence intensity
Sequence: GGTTGGTGTGGTTGG
2'F-ANA at 4 5 6 8 9 10 12 13 14: 173 a.u.
2'F-ANA at 1 2 3 4 9 11 12 14 15: 67.6 a.u.
2'F-ANA at 2 6 7 8 10 11 12 14: 94.2 a.u.
2'F-ANA at 4 6 10 11 12 13 14 15: 58.7 a.u.
2'F-ANA at 1 2 3 4 5 6 9 12 14: 96 a.u.
2'F-ANA at 1 2 3 4 6 7 10 11 12 13: 104 a.u.
2'F-ANA at 1 5 7 8 9 11 12 14: 46.8 a.u.
2'F-ANA at 1 2 4 5 8 10 11 12: 45.4 a.u.
2'F-ANA at 1 2 4 9 11 14: 49.4 a.u.
2'F-ANA at 1 2 4 6 7 8 11 12 13 14 15: 59.9 a.u.
2'F-ANA at 2 4 5 6 8 10 13: 48.1 a.u.
2'F-ANA at 1 9 10 11 12: 62.1 a.u.
2'F-ANA at 1 3 4 7 8 9 10 13 15: 62.2 a.u.
2'F-ANA at 1 2 8 11 13 15: 143 a.u.
2'F-ANA at 5 8 14: 42.1 a.u.
2'F-ANA at 2 4 6 9 11 15: 180 a.u.
2'F-ANA at 2 3 5 7 8 9 10 12 13: 57 a.u.
2'F-ANA at 1 2 4 6 8 10 14: 45.1 a.u.
2'F-ANA at 2 3 4 5 8 9 10 11 14 15: 66 a.u.
2'F-ANA at 2 3 5 7 8 9 10 11 12 14 15: 53.6 a.u.
2'F-ANA at 1 2 4 7 9 10 11 12 15: 56.6 a.u.
2'F-ANA at 2 3 4 7 9 10 12 14: 197 a.u.
2'F-ANA at 1 2 3 4 8 10 11 12 13: 60.3 a.u.
2'F-ANA at 1 2 3 6 8 9 11 13 14: 65.4 a.u.
2'F-ANA at 1 2 6 7 9 10 11 13 15: 51.5 a.u.

Some of these lines once more (sample 5):
CCTCATCC: -0.187
ACCGTGTC: -0.159
TTGCACAA: 0.0936
GAGGCCGA: -0.289
AACTTAAT: 0.269
ACGGCCCA: -0.259
CCGTGAAC: -0.0973
ACCTTTAG: 0.104
TGCGTGAA: 0.0772
CTTCTCGA: -0.0118
CGCCTACG: -0.25
CTTCTGCC: -0.16
GGCCCCTA: -0.331
AAGCTTTG: 0.0227
CTAGCATC: -0.137
CAACGGAG: -0.241
GTTAGAGA: 0.00183
ACCACGCC: -0.191
CGTCCATA: 0.107
CGTTTGGC: -0.0572
GTCCCAAC: -0.0628
